Experimental data pooled from the literature.
Each numbered part is a random draw from the data of one study; scales do not carry over between parts.

Block 1 — technique: universal PBM; molecule type: double-stranded DNA, one strand shown; medium: in vitro; concentration: not given; direction: higher = stronger binding; measurement: E-score
Target: Sal-like protein 4, full length isoform B (SALL4, Homo sapiens, UniProt Q9UJQ4-2, residues 1-616)
Setting: 8-mer, flanks averaged, mean of replicates
ATTGATTC: 0.187
TCTCAAGA: -0.0339
CCGCCCCG: -0.25
CGTTCGTA: 0.126

Block 2 — technique: RNAcompete; molecule type: RNA; medium: in vitro; concentration: 20 nM; setting: 7-mer, probes averaged, single round; relative to: mean of 7-mers; direction: higher = stronger binding; measurement: 7-mer Z-score
Target: PABPC1L2, full length, GST fusion (mouse, UniProt A0ABA7IW68)
Construct (chain): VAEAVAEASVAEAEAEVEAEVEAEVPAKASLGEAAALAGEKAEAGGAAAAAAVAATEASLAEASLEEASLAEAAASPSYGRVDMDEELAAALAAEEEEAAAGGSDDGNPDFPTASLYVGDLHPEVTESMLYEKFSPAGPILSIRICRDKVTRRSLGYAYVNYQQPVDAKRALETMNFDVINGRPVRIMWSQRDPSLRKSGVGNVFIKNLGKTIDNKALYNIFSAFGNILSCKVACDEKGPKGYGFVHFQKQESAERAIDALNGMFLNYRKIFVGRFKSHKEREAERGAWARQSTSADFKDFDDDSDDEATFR
CAACCGA: -0.0971
CCAGGAC: -0.00833
AGCAGCA: -0.0174
GGUUUGA: -0.309
ACAACCC: -0.229

Block 3 — technique: protein binding microarray; molecule type: double-stranded DNA, one strand shown; medium: in vitro; concentration: not given; relative to: not given; direction: higher = stronger binding; measurement: E-score
Target: Histone acetyltransferase KAT6A, winged helix 1, GST fusion (KAT6A, Homo sapiens, UniProt Q92794, residues 1-85)
Setting: 8-mer, flanks averaged, mean of 2 arrays, mostly near background
Target sequence (chain): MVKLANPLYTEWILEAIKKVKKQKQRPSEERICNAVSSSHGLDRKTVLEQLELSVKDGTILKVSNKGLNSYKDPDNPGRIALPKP
GAACGTGC: 0.0822
TCATCCCA: -0.222
TAACGGAA: 0.244
GCTCAAGC: 0.0806
GATAGTAA: -0.048
GCGCCCCC: 0.29

Other studies, line by line
PhoQ, residues 284 288 289 292 302 303 NLCILV — fold induction (PhoP, residues 12 14 15 18 19 SMASL (Escherichia coli, UniProt P23836); Sort-seq, measured: YFP reporter; E. coli; PhoQ-PhoP variant library, together with: 10 µM Mg2+; relative to: high Mg2+ state, higher = stronger signaling): 16.1

Excerpt of the above (block 1):
CCGCCCCG: -0.25
